Measured values pooled from the literature.
Every numbered part comes from another study and shows a few of its results, in no order.
UniProt Q13546, sequence (whole entry, looked up): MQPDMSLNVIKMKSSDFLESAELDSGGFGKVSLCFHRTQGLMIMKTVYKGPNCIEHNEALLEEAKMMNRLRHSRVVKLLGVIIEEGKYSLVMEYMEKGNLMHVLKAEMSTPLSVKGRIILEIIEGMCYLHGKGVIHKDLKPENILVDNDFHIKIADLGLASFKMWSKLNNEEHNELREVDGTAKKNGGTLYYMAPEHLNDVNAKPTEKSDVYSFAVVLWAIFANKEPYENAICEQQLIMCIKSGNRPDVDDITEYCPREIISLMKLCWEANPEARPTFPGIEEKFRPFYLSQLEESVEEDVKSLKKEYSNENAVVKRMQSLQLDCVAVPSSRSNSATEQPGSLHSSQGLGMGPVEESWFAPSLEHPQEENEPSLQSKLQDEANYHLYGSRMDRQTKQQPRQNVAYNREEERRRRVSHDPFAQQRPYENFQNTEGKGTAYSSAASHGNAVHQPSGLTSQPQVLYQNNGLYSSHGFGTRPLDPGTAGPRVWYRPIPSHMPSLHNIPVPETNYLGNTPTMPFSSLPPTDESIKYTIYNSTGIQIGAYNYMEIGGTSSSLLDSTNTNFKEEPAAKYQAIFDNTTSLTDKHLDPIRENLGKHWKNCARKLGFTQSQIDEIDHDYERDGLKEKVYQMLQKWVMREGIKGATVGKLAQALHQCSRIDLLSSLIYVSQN
UniProt Q16566, sequence (whole entry, looked up): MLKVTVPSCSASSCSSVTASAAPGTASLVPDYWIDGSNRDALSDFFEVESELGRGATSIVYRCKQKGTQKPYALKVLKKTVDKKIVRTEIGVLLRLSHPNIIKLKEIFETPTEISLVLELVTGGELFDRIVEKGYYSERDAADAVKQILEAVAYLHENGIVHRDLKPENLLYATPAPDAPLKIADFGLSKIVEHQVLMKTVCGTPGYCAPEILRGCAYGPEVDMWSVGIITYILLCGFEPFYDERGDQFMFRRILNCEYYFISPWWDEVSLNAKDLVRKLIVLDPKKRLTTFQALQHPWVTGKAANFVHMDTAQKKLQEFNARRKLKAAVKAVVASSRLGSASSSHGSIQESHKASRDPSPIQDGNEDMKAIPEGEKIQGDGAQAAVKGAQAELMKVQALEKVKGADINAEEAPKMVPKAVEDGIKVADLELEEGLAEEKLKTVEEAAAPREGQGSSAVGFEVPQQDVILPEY
UniProt O94921, sequence (whole entry, looked up): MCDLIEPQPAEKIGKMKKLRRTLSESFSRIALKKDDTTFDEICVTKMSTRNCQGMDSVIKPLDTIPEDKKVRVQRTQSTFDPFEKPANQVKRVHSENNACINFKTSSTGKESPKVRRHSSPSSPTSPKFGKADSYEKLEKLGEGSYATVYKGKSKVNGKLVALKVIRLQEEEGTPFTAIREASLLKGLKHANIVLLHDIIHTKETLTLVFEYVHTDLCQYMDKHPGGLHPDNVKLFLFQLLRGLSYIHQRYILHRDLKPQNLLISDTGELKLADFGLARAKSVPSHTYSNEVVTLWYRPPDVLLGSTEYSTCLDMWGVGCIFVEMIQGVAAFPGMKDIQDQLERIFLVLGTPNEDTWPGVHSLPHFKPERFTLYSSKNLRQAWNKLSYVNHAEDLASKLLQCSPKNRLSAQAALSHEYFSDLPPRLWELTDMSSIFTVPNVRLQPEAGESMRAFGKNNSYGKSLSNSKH
UniProt Q13557, sequence (whole entry, looked up): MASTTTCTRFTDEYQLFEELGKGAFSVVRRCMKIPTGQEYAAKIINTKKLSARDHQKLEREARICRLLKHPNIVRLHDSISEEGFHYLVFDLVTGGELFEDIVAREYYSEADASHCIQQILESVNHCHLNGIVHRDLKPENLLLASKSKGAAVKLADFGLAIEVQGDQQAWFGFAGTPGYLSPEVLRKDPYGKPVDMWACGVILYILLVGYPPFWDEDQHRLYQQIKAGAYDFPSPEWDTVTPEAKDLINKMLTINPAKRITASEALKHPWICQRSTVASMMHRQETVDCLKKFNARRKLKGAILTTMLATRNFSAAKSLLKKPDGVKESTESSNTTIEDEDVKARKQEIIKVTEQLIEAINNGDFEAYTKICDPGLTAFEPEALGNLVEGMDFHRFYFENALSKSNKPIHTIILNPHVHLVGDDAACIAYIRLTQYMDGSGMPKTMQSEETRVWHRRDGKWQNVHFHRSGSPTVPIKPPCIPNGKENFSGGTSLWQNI
UniProt P15056, sequence (whole entry, unmodified, looked up): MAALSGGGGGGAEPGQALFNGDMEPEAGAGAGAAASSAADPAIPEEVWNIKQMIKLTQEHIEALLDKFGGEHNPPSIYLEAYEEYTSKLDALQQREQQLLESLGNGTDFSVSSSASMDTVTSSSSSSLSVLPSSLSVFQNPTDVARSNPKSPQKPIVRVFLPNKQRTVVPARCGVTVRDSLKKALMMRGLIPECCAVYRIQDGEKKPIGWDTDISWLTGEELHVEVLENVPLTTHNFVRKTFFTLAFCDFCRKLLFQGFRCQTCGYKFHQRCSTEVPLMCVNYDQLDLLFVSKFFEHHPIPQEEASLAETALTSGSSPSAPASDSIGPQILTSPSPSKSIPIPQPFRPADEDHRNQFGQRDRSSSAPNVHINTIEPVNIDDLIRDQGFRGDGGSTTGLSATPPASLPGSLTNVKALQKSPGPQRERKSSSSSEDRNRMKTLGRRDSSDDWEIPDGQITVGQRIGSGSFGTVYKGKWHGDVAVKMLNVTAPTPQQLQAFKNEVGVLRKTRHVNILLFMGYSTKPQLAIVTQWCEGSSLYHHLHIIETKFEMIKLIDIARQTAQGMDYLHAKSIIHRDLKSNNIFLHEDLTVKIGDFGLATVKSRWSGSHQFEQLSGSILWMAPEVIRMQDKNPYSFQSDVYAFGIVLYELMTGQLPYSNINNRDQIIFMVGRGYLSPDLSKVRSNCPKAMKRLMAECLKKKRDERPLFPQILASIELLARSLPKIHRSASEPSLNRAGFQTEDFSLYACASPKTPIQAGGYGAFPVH

Set 1
Target: CRBN/Zinc finger protein Helios (Homo sapiens, UniProt Q96SW2+Q9UKS7)
UniProt Q9UKS7, sequence (whole entry, looked up): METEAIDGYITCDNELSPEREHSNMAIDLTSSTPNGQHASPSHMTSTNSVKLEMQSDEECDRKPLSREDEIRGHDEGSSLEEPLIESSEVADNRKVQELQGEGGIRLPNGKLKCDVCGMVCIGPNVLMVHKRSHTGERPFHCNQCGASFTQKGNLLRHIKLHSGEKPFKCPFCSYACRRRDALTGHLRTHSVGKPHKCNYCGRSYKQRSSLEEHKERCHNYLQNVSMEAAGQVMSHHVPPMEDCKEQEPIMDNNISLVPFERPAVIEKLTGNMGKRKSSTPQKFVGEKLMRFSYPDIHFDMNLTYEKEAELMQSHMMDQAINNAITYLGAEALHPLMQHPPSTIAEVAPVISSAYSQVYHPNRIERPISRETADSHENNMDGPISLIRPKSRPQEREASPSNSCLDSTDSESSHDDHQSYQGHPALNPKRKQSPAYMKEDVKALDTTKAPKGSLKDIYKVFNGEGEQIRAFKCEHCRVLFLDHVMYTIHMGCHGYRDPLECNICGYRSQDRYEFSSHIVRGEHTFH
UniProt Q96SW2, sequence (whole entry, looked up): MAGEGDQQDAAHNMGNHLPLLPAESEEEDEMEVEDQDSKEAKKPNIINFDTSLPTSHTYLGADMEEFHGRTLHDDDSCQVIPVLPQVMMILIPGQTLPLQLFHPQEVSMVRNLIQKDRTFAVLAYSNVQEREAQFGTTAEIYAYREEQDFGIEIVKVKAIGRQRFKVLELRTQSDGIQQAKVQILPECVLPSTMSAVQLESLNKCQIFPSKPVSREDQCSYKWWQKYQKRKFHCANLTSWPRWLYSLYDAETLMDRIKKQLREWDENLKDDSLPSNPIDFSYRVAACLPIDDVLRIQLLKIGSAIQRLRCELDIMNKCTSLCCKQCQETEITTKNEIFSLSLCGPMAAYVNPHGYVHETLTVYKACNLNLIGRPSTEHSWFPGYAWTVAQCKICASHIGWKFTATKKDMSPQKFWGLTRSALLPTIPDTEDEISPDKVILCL
Mode: degrader
Technique: HiBiT
Cell line: HEK293
Concentration: 123.5 nM
| Compound | protein remaining |
| --- | --- |
| O=C1CCC(N2Cc3c(ccc4c3OCC43CCC(Oc4ccccc4)CC3)C2=O)C(=O)N1 (centres unmarked) | 86.1% |
| O=C1CCC(N2Cc3c(ccc4c3OCC43CCC(Cc4ccccc4)CC3)C2=O)C(=O)N1 (centres unmarked) | 94.1% |
| O=C1CCC(N2Cc3c(ccc4c3OCCC43CCN(Cc4ccccc4)CC3)C2=O)C(=O)N1 (centres unmarked) | 69.2% |

Set 2
SMILES: CC(C)n1cnc(-c2ccc(F)cc2)c1-c1ncc(C(=O)Nc2ccc(N3CCN(C)CC3)cc2)[nH]1
Technique: phase 2a trial
Host: idiopathic pulmonary fibrosis patients
| dose | setting | patients with eosinophilia |
| --- | --- | --- |
| dose not given | adverse event grade 5, all dose arms pooled | 0% |
| 60 mg once daily | adverse event grade 3 | 0% |
| dose not given | adverse event grade 4, all dose arms pooled | 0% |
| 30 mg once daily | adverse event grade 2 | 0% |
| 60 mg once daily | adverse event grade 4 | 0% |
| 60 mg once daily | adverse event grade 2 | 0% |
| 60 mg once daily | adverse event grade 5 | 0% |

Set 3
Compound: CO[C@@H](C)c1c(Nc2ccc([C@@H](N(C)C(=O)C3CCS(=O)(=O)CC3)C(F)(F)F)cc2)cnc2cc(Cl)nn12
Observed: cell-free assay
Technique: competition with immobilised ligand
Concentration: 1 µM
| target | remaining binding [%] |
| --- | --- |
| Calcium/calmodulin-dependent protein kinase type IV (CAMK4, Homo sapiens, UniProt Q16566) | 100 |
| Cyclin-dependent kinase 14 (CDK14, Homo sapiens, UniProt O94921) | 99 |
| Cyclin-dependent kinase 11B (CDK11B, Homo sapiens, UniProt P21127) | 100 |
| Serine/threonine-protein kinase B-raf (BRAF, Homo sapiens, UniProt P15056, V600E) | 85 |
| NT-3 growth factor receptor (NTRK3, Homo sapiens, UniProt Q16288) | 100 |
| Dual specificity testis-specific protein kinase 1 (TESK1, Homo sapiens, UniProt Q15569) | 83 |
| eIF-2-alpha kinase GCN2, C-terminal kinase domain (EIF2AK4, Homo sapiens, UniProt Q9P2K8, S808G) | 68 |
| Receptor-interacting serine/threonine-protein kinase 1 (RIPK1, Homo sapiens, UniProt Q13546) | 84 |
| Serine/threonine-protein kinase Sgk3 (SGK3, Homo sapiens, UniProt Q96BR1) | 100 |
| Death-associated protein kinase 1 (DAPK1, Homo sapiens, UniProt P53355) | 89 |
| Calcium/calmodulin-dependent protein kinase type II subunit delta (CAMK2D, Homo sapiens, UniProt Q13557) | 100 |
| Tyrosine-protein kinase ABL1, non-phosphorylated (ABL1, Homo sapiens, UniProt P00519, F317L) | 100 |

Set 4
Target: Ephrin type-A receptor 8 (EPHA8, Homo sapiens, UniProt P29322)
UniProt P29322, sequence (whole entry, looked up): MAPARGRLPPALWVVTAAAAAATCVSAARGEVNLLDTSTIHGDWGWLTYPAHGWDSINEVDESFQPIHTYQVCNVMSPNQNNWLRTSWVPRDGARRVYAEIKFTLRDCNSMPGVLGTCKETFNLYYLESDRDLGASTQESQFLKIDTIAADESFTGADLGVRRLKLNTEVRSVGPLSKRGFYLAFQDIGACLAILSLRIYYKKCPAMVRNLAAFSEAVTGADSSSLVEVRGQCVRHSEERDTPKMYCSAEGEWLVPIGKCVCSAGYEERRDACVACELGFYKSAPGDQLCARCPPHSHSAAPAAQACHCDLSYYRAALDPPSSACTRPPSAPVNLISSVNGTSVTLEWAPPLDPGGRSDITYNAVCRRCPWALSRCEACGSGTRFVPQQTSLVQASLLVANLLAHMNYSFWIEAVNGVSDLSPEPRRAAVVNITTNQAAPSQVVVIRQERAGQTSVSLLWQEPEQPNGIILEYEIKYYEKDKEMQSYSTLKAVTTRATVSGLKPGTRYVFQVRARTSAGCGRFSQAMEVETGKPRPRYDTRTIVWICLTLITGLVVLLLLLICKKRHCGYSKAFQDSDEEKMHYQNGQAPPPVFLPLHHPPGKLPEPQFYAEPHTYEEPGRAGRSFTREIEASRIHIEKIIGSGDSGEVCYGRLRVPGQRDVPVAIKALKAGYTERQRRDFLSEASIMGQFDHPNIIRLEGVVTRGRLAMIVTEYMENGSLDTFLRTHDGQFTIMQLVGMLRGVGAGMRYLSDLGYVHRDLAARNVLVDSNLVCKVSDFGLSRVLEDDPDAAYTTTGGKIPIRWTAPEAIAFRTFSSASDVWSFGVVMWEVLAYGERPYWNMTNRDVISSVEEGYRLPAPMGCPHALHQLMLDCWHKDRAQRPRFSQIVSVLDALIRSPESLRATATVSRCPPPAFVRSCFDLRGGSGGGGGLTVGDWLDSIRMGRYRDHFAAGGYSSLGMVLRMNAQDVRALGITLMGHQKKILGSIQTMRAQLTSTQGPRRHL
Observed: enzyme activity
Mode: inhibitor
Concentration: 0.5 µM
Relative to: control
| Compound | remaining activity |
| --- | --- |
| CCCCc1c(-c2ccc(OC)cc2)[nH]c2nccnc12 | 103% |
| O=C1NC(=O)c2c1c1c3ccccc3[nH]c1c1[nH]c3cc(Br)ccc3c21 | 102% |
| CCCNC(=O)Nc1ccc(Oc2ncnc3cc(OC)c(OC)cc23)cc1Cl | 105% |
| O=C1Cc2c([nH]c3ccc(Br)cc23)-c2ccccc2N1 | 101% |
| Cc1ccc(S(=O)(=O)/C=C/C#N)cc1 | 96.8% |
| CN1CCN(c2ccc3nc(-c4c(N)c5c(F)cccc5[nH]c4=O)[nH]c3c2)CC1 | 105% |
| Cc1cc(Nc2cc(N3CCN(C)CC3)nc(Sc3ccc(NC(=O)C4CC4)cc3)n2)[nH]n1 | 77.1% |

A few entries again (set 3):
| target | remaining binding [%] |
| --- | --- |
| Calcium/calmodulin-dependent protein kinase type IV (CAMK4, Homo sapiens, UniProt Q16566) | 100 |
| Cyclin-dependent kinase 14 (CDK14, Homo sapiens, UniProt O94921) | 99 |
| Cyclin-dependent kinase 11B (CDK11B, Homo sapiens, UniProt P21127) | 100 |
| Serine/threonine-protein kinase B-raf (BRAF, Homo sapiens, UniProt P15056, V600E) | 85 |
| NT-3 growth factor receptor (NTRK3, Homo sapiens, UniProt Q16288) | 100 |
